# Assay results pooled from the literature.
# Every numbered part comes from another study and shows a few of its results, in no order.

# Series 1
# Target: RNA binding protein fox-1 homolog 2, RRM domain, GST-SBP tag (RBFOX2, Homo sapiens, UniProt O43251-10, residues 100-194)
# Method: RNA Bind-n-Seq
# Form: RNA
# Medium: in vitro
# Concentration: 365 nM
# Setting: natural RNA segment, single round, ends assumed
# Reference: no-protein control
# Direction: higher = stronger binding
# Shared flanks, not repeated: GGGAGUUCUACAGUCCGACGAUC … UGGAAUUCUCGGGUGCCAA
# Construct (chain): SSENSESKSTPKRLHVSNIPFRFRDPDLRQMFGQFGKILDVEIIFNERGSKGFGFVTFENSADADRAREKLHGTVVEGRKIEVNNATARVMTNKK
Sequence,RBNS enrichment (R)
CUAUCUUCUCACCACUGGCUUGAGGUAGUGAUUUGGACUUUGCUCAUUAGAGAGCAUUAUCAGAGAUGUGGAGUCCAUCAGAAGACCAGCUUGCAGUGUGUAUAGCAUAU,0.78
GUUUGACUGUGCUCCCUGGUCCUGUGAGGGCUUCAGUGCCCCACCCCUGGGCCACUUCUGCAGCUCCCACCAGAAUGGAUGACCAGAUUCUGUUGGGUUUGGGCACAUAG,0.659
GAGAAAAGAGGAAACUUGGGGGGGGCGGAGUUUCCCCCACCCAAUUACCUAGCAGGAGUCGUGGAAAGGAUGGCGUCUGAUCUGCACGAUGACACCACUGAAUGUUUAGG,9.74
CACGGCUGCGAGUAUUGUUAUAUCUAAUCCUAUUUUAAAAGAUUUUUGGUAAUAUGAAGCUUGAAUACUGGUAACAGUGAUGCAAUAUACGCAAGCUGCACAACCUGUAU,0.324
CCUGGGCGACAGAACGAGACGCCAUCAAUAAAUAAAUAAAUAAAGUAAAGUAAAAAACCUAUUAAAUUGAGGCUAGAGCUGGAGAUGUAAUUGGUUUUUGAGAAACAUUA,0.544
CAGGAGGGGUUUGCUCUGAAUUUGUAAACAAGUCUUCCUCGUCCUCAUGCCCCCACCCCUCUGCUGCCUCCUGCCACCAGCAUCCAUGGCCCCAUGGACACUUUUUUAAA,0.61
GUUGAGAAUUGUAUUCAGUGAUUGUUUCUGCACACUUUUCAAAUAAAAAAUGAAUUUUUAUCAAUUAUUUUCUGUACUCAAAGCAACUUUAUUUCUGUGCUGAAGUUGAG,1.61
GAGUCUAGGAUUCCUUGCCCACUGGCCUUUUGGAAAUGAAGCACCACUGGCCUGAAUAAUUAGCCUUUUCCAGAUCUUCAGUAUCUUCCACAACUACUGCCAUACCCUGU,1.62
GAAGUGGAACUGUGUUCCUGCCAGCCUCUGUAAUGACUGAAGAAAUACAGGGUUUUGAAAACAUGAAGGAAAUGAGAGUUUCCCCCCAUUCCUGAUUUAGCUAUUAUUUC,0.523
CACCUCGGUGUUUCUGUACCAGAGCCUGCGCUGCCCACCGUUGGAGCCCCUCGGAGGGGAGCAACCCGGUGCCUGCUGCUUCACCACUGCCGGCCUCAGGACCCUCCCUG,0.306
AGAGAUCGGAGUUUGACUAGGUUUCCUGUCUGCAAGUCAAUUUUUUUUGUGAAAUUAUCUUGAUUUACAACGUGGUAUUGUAUUUUACAGAGUUCAUGAAGCCCCAAACA,0.58
UACUGGAGCGUAGGGAUGAGAUAAAGGGAUGGAUCCGAGUCCUCCCGGGGCCUGCCAAGCUUUUCCAUACUUCCAGAUGAUGUUAUAAGGCAUUAAACAGCCACCAUCGC,0.342

# Series 2
# Target: PABPC1L2, full length, GST fusion (mouse, UniProt A0ABA7IW68)
# Method: RNAcompete
# Form: RNA
# Medium: in vitro
# Concentration: 20 nM
# Setting: 7-mer, probes averaged, single round
# Reference: mean of 7-mers
# Direction: higher = stronger binding
# Residues (chain): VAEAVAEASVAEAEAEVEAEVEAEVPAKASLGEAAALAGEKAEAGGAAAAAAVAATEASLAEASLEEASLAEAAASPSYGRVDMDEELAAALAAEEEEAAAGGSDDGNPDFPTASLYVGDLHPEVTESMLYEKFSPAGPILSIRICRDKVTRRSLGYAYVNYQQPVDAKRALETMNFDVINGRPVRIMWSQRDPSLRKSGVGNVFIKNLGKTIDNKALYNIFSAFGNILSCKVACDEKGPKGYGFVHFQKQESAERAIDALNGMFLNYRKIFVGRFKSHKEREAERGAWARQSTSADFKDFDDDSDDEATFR
Sequence,7-mer Z-score
UGCAAGC,-0.255
UUGACCU,-0.246
UAGAACG,0.046
GUAUUAA,-0.021
AUGUGGC,0.0497
GGUCACG,0.0261
ACUGCCC,-0.179
GGAUGGU,0.173
GUUCGUG,-0.44
CCGCUCG,-0.47
CAUGCCU,-0.153
ACUUCAC,-0.191
CCCCCGG,-0.467
AACUCCC,-0.182
AGAUCUA,-0.151
CCUGACG,-0.15
UGAUCCU,-0.248
UAUUGGC,-0.126
ACAAUUA,0.0859
UCACUCA,-0.133
AAGUGUA,0.32
CACUGUG,-0.191

# Series 3
# Target: RING finger protein unkempt homolog, zinc fingers 1-6, SBP tag (UNK, Homo sapiens, UniProt Q9C0B0, residues 30-357)
# UniProt Q9C0B0, sequence (30-357, looked up): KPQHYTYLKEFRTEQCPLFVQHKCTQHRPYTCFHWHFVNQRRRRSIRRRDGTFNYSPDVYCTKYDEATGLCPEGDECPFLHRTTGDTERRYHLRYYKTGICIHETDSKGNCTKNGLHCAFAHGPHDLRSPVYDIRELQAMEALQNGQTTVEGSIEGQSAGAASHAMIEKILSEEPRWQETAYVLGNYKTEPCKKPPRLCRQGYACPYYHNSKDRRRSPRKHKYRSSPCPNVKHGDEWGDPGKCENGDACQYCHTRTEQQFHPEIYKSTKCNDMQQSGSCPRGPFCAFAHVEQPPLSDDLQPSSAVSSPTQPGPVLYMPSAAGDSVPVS
# Method: RNA Bind-n-Seq
# Form: RNA
# Medium: in vitro
# Concentration: 100 nM
# Setting: RNA with constant flanks, vertebrate orthologous sites, ends assumed
# Reference: input RNA pool
# Direction: higher = stronger binding
# Shared flanks, not repeated: GGGAGUUCUACAGUCCGACGAUC … CAACAGAGGAUUGAGCAUCA
Sequence,bound/input enrichment [ratio]
UUGGGACCAGCUCUCCAAAUAGGAAUAGUAGUAAAAAAAAUAAGCAAAAUGAUACUUGUAUAGAAAAAACGGAAGUUAAAUCAUGCAAGGUAAAUCCUGCCAGUGUUCCAGGCCCUAAAG,1.27
UACAGGGAGAACUCACAAACUCAAAGGAAAGCUAUGAAAGAGUUUCUAAUAGAUAAAAGCUAGGAAAGAUUAGGACACUUUACAAAUGAGAAAUUAAAAAUAAAACAAAAGAAAAAGGAU,0.738
CUACUAUGAACAACUCAGGGCAGUAUUCUCGAUAUCCUUACAGUAACCUAAAUCAGGGAUUAGUUAACAAUACAGGGAUGAAUCAAAAUUUAGGCCUUACAAAUAAUCCUCCAAUGAGUC,1.84
UGAAAGUUACAGACAAGAGUCUGAAAGUAGAAAUACAGGAUCCUGGUUGUCAUCAUCUCUAAGAAAUAGAUGUACACCUCUGUUCUCCAGAAGAAGGCGAGAAGGAAGAGAUGAAUCUGC,0.342
CUUACCUGGUUAAUGUGUUUCUAUUUAUUGAGUAUAGUUUGUGCUAAACAUUGUGUUAAAUAGUGGAUUGACUCCACGUUGUUGUGUUGUUUUCAUUGUUGAAAAUAAAUAUAACUUUGU,0.315
GUCCCUCAGUGACAGCAUGCCGUCUGUAGCUGAUUCCCACUCAAGUCACUUUUCUGAAUUCAGUUGUUCUGAUCUAGAAAGCAUGAAAACUUCGUGUAGUCAUGGUUCCAGUGAUUAUCA,0.191
CCUAAAAUUAUAGCAGAAGAGCCAAGCAGUAGCAGUUUUUUUUGUAAAUUUAAAAAUAAUUAGAUCCAGACUUUGUUUCCUUCUUCAAUUUUAAAAAUAAAAAAUACCUCAGUGCUGUGU,0.794
CAGCCGAUUCUCUCAUAGGGAGAGCUGCACACAUUGCUGUUCUUGAUUCAGAAAUAUUUUUAGAAAAGUUCUUUCUGGUUGCUGCCCUAAAAUAUUUCCAGUAGAAGAAAAGCAUUUUAA,0.568
UGGAAGAAAUGGACAUUGGCAUGAAAUCAGGCUCUAGCACAAGCAGAUCUAGUAAAAAGACUGCCAUCUGCGCCAGCUGCUGUGCACUUUAAUAGAGGCAGCUGUGUUUGAGGAACAGAA,0.355
UGUAAAAUAUUGGAUGCAGUGUAUAAAUUACCCAAGGCAGUGACUUCAGCGUUACAUAUAUUGUCAGUUUUAAAAUCAUCUGCAUUUAUUUAAACUCCUGUAUCGGAUUGUUUGAUCUGU,0.408
CCCCGAUUUUAGAUGUGAUAUCUAGGCUUUCAUUCCAGUUUGUUUUUGUCUUUUCUUGUUUAGAUAACCAAUCUUUUAAAUUCUUGCAUUUUAGUAAGAAAGCAACCUUUUUAUGGAUGU,1.11

# Series 4
# Target: Interferon regulatory factor 3, full length, phosphomimetic (IRF3, Homo sapiens, UniProt Q14653, residues 1-427, S386D/S396D/S398D/S402D/T404D/S405D)
# UniProt Q14653, sequence (whole entry, unmodified, looked up): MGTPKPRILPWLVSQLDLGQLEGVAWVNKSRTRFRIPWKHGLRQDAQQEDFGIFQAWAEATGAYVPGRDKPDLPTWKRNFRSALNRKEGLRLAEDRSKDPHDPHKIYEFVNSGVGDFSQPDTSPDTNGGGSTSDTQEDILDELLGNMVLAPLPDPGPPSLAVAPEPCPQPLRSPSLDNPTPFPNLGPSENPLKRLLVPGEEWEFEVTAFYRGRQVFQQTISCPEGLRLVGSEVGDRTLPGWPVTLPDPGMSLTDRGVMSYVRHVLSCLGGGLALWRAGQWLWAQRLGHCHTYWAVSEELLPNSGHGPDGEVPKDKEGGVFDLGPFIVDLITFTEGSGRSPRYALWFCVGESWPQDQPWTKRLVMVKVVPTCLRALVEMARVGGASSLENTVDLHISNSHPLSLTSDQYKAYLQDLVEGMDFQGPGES
# Method: protein-binding microarray
# Form: double-stranded DNA, one strand shown
# Medium: in vitro
# Concentration: 2540 nM top
# Setting: 60-bp whole probe
# Together with: salmon DNA 0.4 mg/ml
# Reference: random background probes
# Direction: higher = stronger binding
# Shared flanks, not repeated: GCCTAGCAC … GTCTTGATTCGCTTGACGCTGCTG
Sequence,fitted relative affinity [z-score]
CTAATTTTCAATTCCTGAAAGTGCTAG,2.19
TCACCTTCAGCTCTAGGACTGTGCTAG,0.145
CTCTCATTCCAATTCTTTTTGTGCTAG,1.73
GACGATTTCAGAGTGGAGACGTGCTAG,1.16
TTAGGTTTCGGTTCCGGATAGTGCTAG,11.1
GTTGGGGCGGGGCGGGGTGGGTGCTAG,0.0755
GTAAGTTTCACTTTCCAAAGGTGCTAG,9.17
TCATAAAACAACTTTCAAACTGTGCTA,0.128
GACGGACTGCTTCTACTGACGTGCTAG,-0.275
TTTGGTTTCGGGTATCGGTTAGTGCTA,5.02
ATAGATCTCAGTATCGATTAGTGCTAG,1.09
GACGGTTTCGGGACTGGGGAGGTGCTA,4.9
GACGGTATCCTAGTGCTGACGTGCTAG,2.65
TACGGACTGCTTTTCCTGACGTGCTAG,-0.0523
CTTTCTTTTTTTCTTTTATTGTGCTAG,6.83
GTAGGTATCGACACTGGGTTAGTGCTA,0.112
GACGATTTCAGGACTGGAGACGTGCTA,1.15
GGCGGTCTCCTTCTCCTGACGTGCTAG,4.01
TCACTCCTATCTTATGATACTGTGCTA,0.977
TCAAGACTTGATTTTGGACTGTGCTAG,-0.674
TTAGAACTGGACTATCGGTTAGTGCTA,-0.283
TTAGATATTGGGACTGGATTAGTGCTA,-0.51
TCATCTATCAAAAATACAACTGTGCTA,0.627
GACGGACTGGACTTTCAGGACGTGCTA,-0.142
TTAGGACTGGGGCTGGGTTAGTGCTAG,-0.896
